Measured values collected from several papers.
A part holds a random share of what one study measured.

Block 1
Target: Prothrombin, mature alpha-thrombin (F2, Homo sapiens, UniProt P00734)
Technique: aptamer microarray, sandwich
Molecule type: DNA with 2'F-ANA
Medium: in vitro
Tested at: 200 nM
Notes: whole 15-mer aptamer, many near background
With: Cy3 exosite-II aptamer, 400 nM
Direction: higher = stronger binding
Oligonucleotide: GGTTGGTGTGGTTGG
For `2'F-ANA at 1 4 5 6 7 9 12 13 14 15`, “mean fluorescence intensity” read 44.7 a.u.
Under “mean fluorescence intensity”, `2'F-ANA at 5 6 7 9 13 14` is recorded as 44.7 a.u.
`2'F-ANA at 1 4 5 6 7 8 9 10 14 15` — result for “mean fluorescence intensity”: 199 a.u.
For `2'F-ANA at 1 2 4 9 11 12 15`, “mean fluorescence intensity” read 213 a.u.
`2'F-ANA at 2 6 7 8 11 13 15` — result for “mean fluorescence intensity”: 282 a.u.
For `2'F-ANA at 2 5 6 7 8 9 10 11 14`, “mean fluorescence intensity” read 72.6 a.u.
`2'F-ANA at 2 3 4 6 8 9 10 11 12 15`: “mean fluorescence intensity” 219 a.u.
Under “mean fluorescence intensity”, `2'F-ANA at 1 5 8 11 12 13 15` is recorded as 73.8 a.u.
`2'F-ANA at 2 3 5 6 7 8 9 10 11 14` — result for “mean fluorescence intensity”: 58.8 a.u.
`2'F-ANA at 1 3 5 8 10 11 13` — result for “mean fluorescence intensity”: 60.1 a.u.
`2'F-ANA at 1 3 6 7 10 11 12 14 15`: “mean fluorescence intensity” 154 a.u.
`2'F-ANA at 2 3 4 5 11 15` — result for “mean fluorescence intensity”: 78.6 a.u.
Under “mean fluorescence intensity”, `2'F-ANA at 2 4 5 8 9 10 11 12` is recorded as 49.3 a.u.
For `2'F-ANA at 2 3 5 13 15`, “mean fluorescence intensity” read 72.3 a.u.
Under “mean fluorescence intensity”, `2'F-ANA at 1 2 4 5 7 9 11 13` is recorded as 52.5 a.u.
`2'F-ANA at 4 5 8 10 14 15` — result for “mean fluorescence intensity”: 44.4 a.u.
Under “mean fluorescence intensity”, `2'F-ANA at 1 3 5 6 7 9 10 14` is recorded as 45.6 a.u.
`2'F-ANA at 2 5 6 11 12 15` — result for “mean fluorescence intensity”: 109 a.u.
For `2'F-ANA at 1 2 3 6 7 8 9 10 11 12 13 15`, “mean fluorescence intensity” read 73.8 a.u.
`2'F-ANA at 2 3 4 6 9 13 15`: “mean fluorescence intensity” 338 a.u.
`2'F-ANA at 2 4 5 8 10 13 14`: “mean fluorescence intensity” 43.1 a.u.

Block 2
Target: Sal-like protein 4, full length isoform A (SALL4, Homo sapiens, UniProt Q9UJQ4, residues 1-1053)
Sequence of UniProt Q9UJQ4 (whole entry, looked up): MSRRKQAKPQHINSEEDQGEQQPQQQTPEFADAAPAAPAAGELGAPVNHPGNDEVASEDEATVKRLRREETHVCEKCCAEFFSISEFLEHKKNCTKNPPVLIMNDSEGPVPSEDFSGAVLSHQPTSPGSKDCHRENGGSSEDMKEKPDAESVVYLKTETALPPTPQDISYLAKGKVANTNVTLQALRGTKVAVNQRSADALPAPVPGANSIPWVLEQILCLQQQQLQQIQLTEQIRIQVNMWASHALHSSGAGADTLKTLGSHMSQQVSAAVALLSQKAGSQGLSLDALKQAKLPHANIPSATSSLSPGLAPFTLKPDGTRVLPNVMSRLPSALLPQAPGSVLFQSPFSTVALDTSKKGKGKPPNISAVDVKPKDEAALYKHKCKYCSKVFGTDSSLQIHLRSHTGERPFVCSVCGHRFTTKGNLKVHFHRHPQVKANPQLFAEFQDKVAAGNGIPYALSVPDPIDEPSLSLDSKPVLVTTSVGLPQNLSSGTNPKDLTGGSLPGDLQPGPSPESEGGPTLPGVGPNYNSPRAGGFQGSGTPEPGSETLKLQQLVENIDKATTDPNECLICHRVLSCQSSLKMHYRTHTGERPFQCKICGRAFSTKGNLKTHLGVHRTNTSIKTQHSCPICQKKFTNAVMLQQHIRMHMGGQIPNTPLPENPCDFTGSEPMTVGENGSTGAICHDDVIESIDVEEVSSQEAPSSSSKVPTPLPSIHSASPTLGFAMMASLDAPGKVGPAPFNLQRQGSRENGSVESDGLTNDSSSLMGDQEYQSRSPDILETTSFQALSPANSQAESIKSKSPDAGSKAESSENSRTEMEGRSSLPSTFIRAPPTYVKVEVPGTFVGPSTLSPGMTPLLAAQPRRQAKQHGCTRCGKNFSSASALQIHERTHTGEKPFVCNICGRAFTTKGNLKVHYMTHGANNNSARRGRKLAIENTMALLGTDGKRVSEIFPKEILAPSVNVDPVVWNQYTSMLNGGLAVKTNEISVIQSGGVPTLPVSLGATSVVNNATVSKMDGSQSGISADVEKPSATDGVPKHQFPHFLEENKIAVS
Technique: universal PBM
Molecule type: double-stranded DNA, one strand shown
Medium: in vitro
Tested at: 600 nM
Notes: 8-mer, flanks averaged, mean of replicates
Direction: higher = stronger binding
`AAACTGAG` has an E-score of -0.084.
The E-score of `CAATTGGC` is reported as 0.139.
For `TACAATCA`, the E-score was 0.169.
With `ATGCATGC` the E-score was 0.0185.
For `ATGTCTCG`, the E-score was -0.0706.
With `TACAGCGA` the E-score was -0.0447.
`CGACTCCA` gave an E-score of -0.198.
With `AGTTGTCG` the E-score was -0.0797.
`CCATCTAG` gave an E-score of -0.0053.
For `ACAAGAAT`, the E-score was 0.216.
With `TCGCTGCA` the E-score was -0.101.
The E-score of `AATCGTTC` is reported as 0.0543.
With `CCCCCGGC` the E-score was -0.416.
For `GCAGTAGA`, the E-score was -0.0651.
With `GTTTAACA` the E-score was 0.18.
`GATTTCGC` gave an E-score of 0.0881.
With `ACTGCCGA` the E-score was -0.178.
`ATCCTTTC` has an E-score of 0.169.
With `ACAAGCGG` the E-score was -0.0923.
`CTACTTTA` gave an E-score of 0.144.
The E-score of `ACGACTTC` is reported as 0.0676.
`CCCGGGCG` gave an E-score of -0.322.
The E-score of `ACTCAACT` is reported as 0.0512.
For `CACATAAC`, the E-score was 0.252.
The E-score of `CCAATTCC` is reported as -0.07.

Block 3
Target: TAR DNA-binding protein 43, full length, His tag (TARDBP, Homo sapiens, UniProt Q13148, residues 1-414)
Technique: RNA Bind-n-Seq
Molecule type: RNA
Medium: in vitro
Tested at: 20 nM
Notes: 6-mer, flanks averaged, single round
With: 150 mM KCl
Relative to: input library
Direction: higher = stronger binding
`CGGUAG` — result for “6-mer enrichment (R)”: 1.33.
Under “6-mer enrichment (R)”, `AGUUUA` is recorded as 0.617.
`AAGUAU` — result for “6-mer enrichment (R)”: 0.722.
Under “6-mer enrichment (R)”, `UUGGGU` is recorded as 1.63.
For `UCAAGU`, “6-mer enrichment (R)” read 0.636.
For `GCAGAC`, “6-mer enrichment (R)” read 0.938.
`GUUGUA`: “6-mer enrichment (R)” 0.829.
`AAUGCG`: “6-mer enrichment (R)” 1.01.
`CUAGUA` — result for “6-mer enrichment (R)”: 0.63.
`GACUUA`: “6-mer enrichment (R)” 0.629.
For `UGAGAU`, “6-mer enrichment (R)” read 0.819.
For `CUCUGU`, “6-mer enrichment (R)” read 0.613.
`UAAAGA` — result for “6-mer enrichment (R)”: 0.661.
Under “6-mer enrichment (R)”, `GCGGAG` is recorded as 3.73.
`UGCGCG`: “6-mer enrichment (R)” 1.59.
Under “6-mer enrichment (R)”, `GAACAC` is recorded as 0.715.
Under “6-mer enrichment (R)”, `AGUGAU` is recorded as 0.8.
`AAAGCU` — result for “6-mer enrichment (R)”: 0.583.
`GGACGG` — result for “6-mer enrichment (R)”: 4.15.
Under “6-mer enrichment (R)”, `GCCCUA` is recorded as 0.677.
For `GGAUGC`, “6-mer enrichment (R)” read 1.52.
For `GGUUGU`, “6-mer enrichment (R)” read 1.28.
`UUAUUA`: “6-mer enrichment (R)” 0.638.
`CGUUUG` — result for “6-mer enrichment (R)”: 0.733.
For `AAGUCG`, “6-mer enrichment (R)” read 0.797.

Block 4
Target: Interferon regulatory factor 5, full length, phosphomimetic (IRF5, Homo sapiens, UniProt Q13568-2, residues 1-514, S451D/S453D/S456D/S462D)
Technique: protein-binding microarray
Molecule type: double-stranded DNA, one strand shown
Medium: in vitro
Tested at: 940 nM top
Notes: 60-bp whole probe
With: salmon DNA 0.4 mg/ml
Relative to: random background probes
Direction: higher = stronger binding
Shared flanks, not repeated: GCCTAGCAC … GTCTTGATTCGCTTGACGCTGCTG
Under “fitted relative affinity”, `ATGAGACTGTCACATCCCTGGTGCTAG` is recorded as 0.119 z-score.
`GACGGCCTGGGGTTTCGGGACGTGCTA` — result for “fitted relative affinity”: 1.61 z-score.
Under “fitted relative affinity”, `GACGGTATCGGTCTCCGGACGTGCTAG` is recorded as 9.48 z-score.
`GACGGTTTGCTTTTCCTGACGTGCTAG` — result for “fitted relative affinity”: 0.368 z-score.
Under “fitted relative affinity”, `CACGGTTTCCTTATCCTGACGTGCTAG` is recorded as 1.2 z-score.
For `TTAGTTCTCAGACTGGATTAGTGCTAG`, “fitted relative affinity” read 0.229 z-score.
`GACGAATTGGGGTTTCGAGACGTGCTA` — result for “fitted relative affinity”: 2.11 z-score.
For `TTGAGTCTTCTCCTCTAGGTGTGCTAG`, “fitted relative affinity” read -0.0805 z-score.
For `TCATGCCTATTTTTCCCACTGTGCTAG`, “fitted relative affinity” read 0.853 z-score.
`TTAGGTCTCGGTCTCAGTTAGTGCTAG`: “fitted relative affinity” 4.72 z-score.
`CCAGGGACAAAGCGGTGCGAGTGCTAG`: “fitted relative affinity” -0.749 z-score.
For `GACGGACTTGGTATCGGGACGTGCTAG`, “fitted relative affinity” read 2.6 z-score.
For `GACGAACTGGGTTATCGAGACGTGCTA`, “fitted relative affinity” read 0.037 z-score.
`TCACCTGTCCTTTTCTTACTGTGCTAG`: “fitted relative affinity” 1.6 z-score.
`TCATGTGTCAACTTTCTCACTGTGCTA` — result for “fitted relative affinity”: 0.86 z-score.
Under “fitted relative affinity”, `GTGTTTGTCCCTATTTAAGAGTGCTAG` is recorded as 1.16 z-score.
Under “fitted relative affinity”, `TTAGGACTGGACTATGGGTTAGTGCTA` is recorded as -0.417 z-score.
`TTAGAACTGAGACTGGATTTGTGCTAG`: “fitted relative affinity” 0.126 z-score.
For `GACGGTTTGGGTATCGGGACGTGCTAG`, “fitted relative affinity” read 1.42 z-score.

Block 5
Target: Histone acetyltransferase KAT6A, both winged helices, GST fusion (KAT6A, Homo sapiens, UniProt Q92794, residues 1-181)
Technique: protein binding microarray
Molecule type: double-stranded DNA, one strand shown
Medium: in vitro
Tested at: not given
Notes: 8-mer, flanks averaged, mean of 2 arrays, mostly near background
Relative to: not given
Direction: higher = stronger binding
Residues (chain): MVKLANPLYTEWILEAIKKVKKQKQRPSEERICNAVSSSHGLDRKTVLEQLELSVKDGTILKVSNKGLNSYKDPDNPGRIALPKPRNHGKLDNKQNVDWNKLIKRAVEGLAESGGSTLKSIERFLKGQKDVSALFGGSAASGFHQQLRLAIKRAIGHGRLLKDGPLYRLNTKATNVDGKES
With `CCTCATGA` the E-score was -0.103.
With `CTAACCGA` the E-score was 0.0717.
With `CTTGCATA` the E-score was -0.23.
`CCCTAAGG` has an E-score of -0.16.
`TGTGGCAA` gave an E-score of 0.00717.
`GGAATGAA` gave an E-score of 0.103.
For `AGGTCCTA`, the E-score was -0.158.
`GGCATCGA` gave an E-score of 0.00598.
With `ATGTGTGA` the E-score was -0.152.
For `ATAATACC`, the E-score was -0.0516.
The E-score of `GGGTGCCA` is reported as -0.0433.
With `CCGAGCAG` the E-score was 0.071.
With `ATACCACA` the E-score was -0.108.
For `CCAGAGTC`, the E-score was -0.0782.
The E-score of `AACACTGT` is reported as -0.0147.
`ACCAGATC` gave an E-score of -0.0378.
The E-score of `ATACTATG` is reported as -0.0532.
The E-score of `AGTCGCGC` is reported as 0.241.
With `CATACCCG` the E-score was 0.212.
`CGGGGCAC` has an E-score of 0.211.
